{"data": "Earlier results as cited in several papers", "note": "Lines come from different studies, so protocols differ.", "sequence of UniProt Q6PHR2 (whole entry, looked up)": "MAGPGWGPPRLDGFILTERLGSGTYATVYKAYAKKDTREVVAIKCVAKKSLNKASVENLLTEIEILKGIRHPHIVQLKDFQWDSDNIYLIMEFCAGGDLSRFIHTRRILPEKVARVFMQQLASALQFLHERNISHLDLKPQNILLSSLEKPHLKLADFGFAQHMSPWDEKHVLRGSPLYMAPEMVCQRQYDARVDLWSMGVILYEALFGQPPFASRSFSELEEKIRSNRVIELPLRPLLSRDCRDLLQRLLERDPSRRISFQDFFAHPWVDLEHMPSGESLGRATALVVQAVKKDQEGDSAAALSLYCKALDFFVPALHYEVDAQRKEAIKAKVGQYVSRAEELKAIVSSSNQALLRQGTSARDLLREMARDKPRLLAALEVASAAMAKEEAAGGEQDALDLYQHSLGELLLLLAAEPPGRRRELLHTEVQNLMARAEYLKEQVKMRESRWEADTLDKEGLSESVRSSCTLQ"}
{"Structure (SMILES)": "C#C[C@]1(CO)O[C@@H](n2cnc3c(N)nc(F)nc32)C[C@@H]1O", "system": "human, plasma", "measurement": "terminal half-life", "value": "50 to 60 h"}
{"Structure (SMILES)": "Nc1cc(C(F)(F)F)c(-c2nc(N3CCOCC3)nc(N3CCOCC3)n2)cn1", "target or system": "Serine/threonine-protein kinase ULK3 (ULK3, Homo sapiens, UniProt Q6PHR2)", "assay": "enzyme activity", "conditions": "10 µM", "how to read": "reference: untreated", "measurement": "remaining activity", "value": "100%"}
{"Structure (SMILES)": "Cc1cccc(F)c1N1CCC(N2Cc3cn(CC(C)(F)F)nc3N(Cc3ccccc3C(F)(F)F)C2=O)CC1", "system": "human", "conditions": "2.5 mg and above, single dose", "measurement": "terminal half-life", "value": "30 to 46 h"}
{"Structure (SMILES)": "CCOc1c([C@H](C)n2nc(C)c3c(N)ncnc32)cc(Cl)c(F)c1[C@@H]1CNC(=O)C1", "system": "human", "conditions": "oral, fasted, steady state, geometric mean", "measurement": "terminal half-life", "value": "~10 h"}
{"Structure (SMILES)": "CO[C@]1(C(=O)N[C@@H](C)c2ccc(-n3cc(F)cn3)nc2)CC[C@H](c2nc(C)cc(Nc3cc(C)[nH]n3)n2)CC1", "system": "human", "conditions": "together with: itraconazole", "measurement": "terminal half-life", "value": "28.3 h"}
{"Structure (SMILES)": "CC1(C)CC[C@]2(NC(=O)C(C)(F)F)CC[C@]3(C)[C@H](C(=O)C=C4[C@@]5(C)C=C(C#N)C(=O)C(C)(C)[C@@H]5CC[C@]43C)[C@@H]2C1", "system": "human, plasma", "measurement": "terminal half-life", "value": "57 h"}
{"Structure (SMILES)": "Cc1cc(C)c(CNC(=O)c2cc(Cl)c3c(c2C)O[C@@](C)([C@H]2CC[C@H](N(C)C)CC2)O3)c(=O)[nH]1", "system": "healthy human, plasma", "measurement": "terminal half-life", "value": "~20 h"}
{"Structure (SMILES)": "Cc1cc(C)c(CNC(=O)c2cc(Cl)c3c(c2C)O[C@@](C)([C@H]2CC[C@H](N(C)C)CC2)O3)c(=O)[nH]1", "system": "healthy human, fasted", "conditions": "oral, dose not given, single dose", "measurement": "terminal half-life", "value": "~20 h"}
{"Structure (SMILES)": "N#Cc1cccc(-c2ccc3ncc(-c4cc(F)cc(F)c4)c(N4CCC(N)CC4)c3c2)c1O", "system": "healthy human", "conditions": "dose not given", "measurement": "terminal half-life", "value": "22 to 29 h"}
{"Structure (SMILES)": "C[C@@H]1CCN(C(=O)CC#N)C[C@@H]1N(C)c1ncnc2[nH]ccc12", "system": "human healthy adult", "measurement": "terminal t1/2", "value": "~2.5 h"}
{"Structure (SMILES)": "CNS(=O)(=O)Nc1nccc(Cc2c(C)c3ccc(Oc4ncccn4)cc3oc2=O)c1F", "system": "human", "conditions": "oral", "measurement": "terminal half-life", "value": "~60 h"}
{"Structure (SMILES)": "Cn1ncnc1[C@H]1c2n[nH]c(=O)c3cc(F)cc(c23)N[C@@H]1c1ccc(F)cc1", "system": "human, plasma", "measurement": "terminal half-life", "value": "~90 h"}
{"note": "Some of these lines once more:"}
{"Structure (SMILES)": "Cc1cccc(F)c1N1CCC(N2Cc3cn(CC(C)(F)F)nc3N(Cc3ccccc3C(F)(F)F)C2=O)CC1", "system": "human", "conditions": "2.5 mg and above, single dose", "measurement": "terminal half-life", "value": "30 to 46 h"}
